Experimental data gathered from unrelated publications.
Numbered parts are unrelated; each lists some results of a single study.
Chain of UniProt P18846 (whole entry, looked up): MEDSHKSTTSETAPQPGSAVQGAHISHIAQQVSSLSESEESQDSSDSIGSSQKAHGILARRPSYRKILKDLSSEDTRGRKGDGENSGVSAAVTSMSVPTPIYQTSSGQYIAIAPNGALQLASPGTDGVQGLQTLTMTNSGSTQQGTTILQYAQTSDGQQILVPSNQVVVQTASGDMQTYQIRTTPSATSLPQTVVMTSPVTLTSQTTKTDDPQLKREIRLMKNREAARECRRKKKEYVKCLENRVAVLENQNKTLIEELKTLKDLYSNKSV
Chain of UniProt P48431 (37-118, looked up): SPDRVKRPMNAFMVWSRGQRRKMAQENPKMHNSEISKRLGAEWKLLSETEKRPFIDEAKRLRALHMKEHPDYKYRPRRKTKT
Chain of UniProt O00571 (132-607, looked up): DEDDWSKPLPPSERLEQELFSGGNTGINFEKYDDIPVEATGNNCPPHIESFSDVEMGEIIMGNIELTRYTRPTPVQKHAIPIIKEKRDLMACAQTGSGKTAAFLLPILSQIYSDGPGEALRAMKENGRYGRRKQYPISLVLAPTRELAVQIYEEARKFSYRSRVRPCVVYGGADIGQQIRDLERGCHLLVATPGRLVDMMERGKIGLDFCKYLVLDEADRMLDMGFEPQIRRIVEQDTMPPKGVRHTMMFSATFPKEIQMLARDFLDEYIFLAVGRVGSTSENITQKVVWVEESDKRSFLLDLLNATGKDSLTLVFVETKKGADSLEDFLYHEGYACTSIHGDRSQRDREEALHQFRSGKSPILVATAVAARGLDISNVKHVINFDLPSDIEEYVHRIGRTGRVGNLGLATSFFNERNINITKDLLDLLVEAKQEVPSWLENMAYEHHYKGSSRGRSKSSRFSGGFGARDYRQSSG
Chain of UniProt Q92826 (whole entry, looked up): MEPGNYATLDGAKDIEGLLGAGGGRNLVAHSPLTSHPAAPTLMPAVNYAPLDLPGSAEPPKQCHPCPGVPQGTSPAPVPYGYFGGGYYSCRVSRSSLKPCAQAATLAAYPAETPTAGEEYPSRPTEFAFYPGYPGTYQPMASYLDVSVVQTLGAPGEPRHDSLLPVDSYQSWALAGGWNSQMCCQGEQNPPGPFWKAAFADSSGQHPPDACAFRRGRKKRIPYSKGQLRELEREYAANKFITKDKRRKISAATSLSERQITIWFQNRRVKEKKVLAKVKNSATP

Block 1
Target: Phosphate system positive regulatory protein PHO4, full length, GST-tagged (PHO4, Saccharomyces cerevisiae, UniProt P07270, residues 1-312)
Technique: competition protein-binding microarray
Form: double-stranded DNA, one strand shown
Matrix: in vitro
Tested at: 2 µM
Setting: whole 60-bp probe, lowest competitor level
Added: Cbf1 competitor, 0.05 µM
Direction: higher = stronger binding
Residues (chain): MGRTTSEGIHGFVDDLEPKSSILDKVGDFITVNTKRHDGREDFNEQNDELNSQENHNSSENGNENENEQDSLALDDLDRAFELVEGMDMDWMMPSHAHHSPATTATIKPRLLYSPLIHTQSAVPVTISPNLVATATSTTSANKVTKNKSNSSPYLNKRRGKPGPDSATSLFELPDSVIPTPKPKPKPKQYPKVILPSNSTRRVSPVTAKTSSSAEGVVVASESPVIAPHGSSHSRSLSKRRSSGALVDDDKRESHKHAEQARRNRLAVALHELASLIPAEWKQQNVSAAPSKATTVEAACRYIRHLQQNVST
Strand | fluorescence intensity [a.u.]
TGCGCAACAACTTGCTTCGTGGGTGTATGTCTAGAAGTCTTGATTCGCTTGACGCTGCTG | 6030
AGCCTTCCCGGCAGATTAATTCAATGGGAGTTGCCGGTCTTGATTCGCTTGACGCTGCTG | 2250
TTACGCAGCTTTCGGCACGTGAGTACGGAAACACCAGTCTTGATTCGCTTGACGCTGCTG | 17300
TGACCGTTTTGTCTTCAGGTGATGAAGCAAACAACTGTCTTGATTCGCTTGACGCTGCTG | 3730
TGCGCAACAACTTGCGTGGTGGGTGTATGTCTAGAAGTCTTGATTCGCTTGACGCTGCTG | 6680
AAATGAAGCCTCCTCCACGTTTATTGCCTTATTTAAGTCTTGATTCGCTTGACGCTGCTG | 13500
CATACCCAACCTTGAACGGTGGGTGAAGATATTTGTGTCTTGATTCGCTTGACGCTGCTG | 4170
AAATTACTAAGTTGTCACGACACTTACCCCGTATGAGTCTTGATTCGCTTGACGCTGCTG | 4900

Block 2
Cell line: HEK-293T/ACE2
Read-out: pseudovirus infection
Organism: VSV pseudotyped with SARS-CoV-2 spike
Tested at: concentration not given
Reference: vehicle-treated
Compound | GFP-positive cells [%]
COS(=O)(=O)[O-].C[N+]1(C)CCC(=C(c2ccccc2)c2ccccc2)CC1 | 65.4
Cc1cc(C#N)cc(C)c1Oc1nc(Nc2ccc(C#N)cc2)nc(N)c1Br | 31
Nc1nc2[nH]cc(CCc3ccc(C(=O)N[C@@H](CCC(=O)[O-])C(=O)[O-])cc3)c2c(=O)[nH]1.Nc1nc2[nH]cc(CCc3ccc(C(=O)N[C@@H](CCC(=O)[O-])C(=O)[O-])cc3)c2c(=O)[nH]1.O.O.O.O.O.[Na+].[Na+].[Na+].[Na+] | 62.3
O=C(/C=C/c1cccc(S(=O)(=O)Nc2ccccc2)c1)NO | 49.2
CO[C@H]1C[C@@H]2CC[C@@H](C)[C@@](O)(O2)C(=O)C(=O)N2CCCC[C@H]2C(=O)O[C@H]([C@H](C)C[C@@H]2CC[C@@H](OCCO)[C@H](OC)C2)CC(=O)[C@H](C)/C=C(\C)[C@@H](O)[C@@H](OC)C(=O)[C@H](C)C[C@H](C)/C=C/C=C/C=C/1C | 109

Block 3
Strand: CCUG
Technique: RNA Bind-n-Seq
Form: RNA
Matrix: in vitro
Setting: 4-mer, random 30-nt RNA, single round
Reference: input library
Direction: higher = stronger binding
EIF4A1: Eukaryotic initiation factor 4A-I (EIF4A1, Homo sapiens, UniProt P60842, residues 1-406, full length assumed)
Chain of UniProt P60842 (whole entry, looked up): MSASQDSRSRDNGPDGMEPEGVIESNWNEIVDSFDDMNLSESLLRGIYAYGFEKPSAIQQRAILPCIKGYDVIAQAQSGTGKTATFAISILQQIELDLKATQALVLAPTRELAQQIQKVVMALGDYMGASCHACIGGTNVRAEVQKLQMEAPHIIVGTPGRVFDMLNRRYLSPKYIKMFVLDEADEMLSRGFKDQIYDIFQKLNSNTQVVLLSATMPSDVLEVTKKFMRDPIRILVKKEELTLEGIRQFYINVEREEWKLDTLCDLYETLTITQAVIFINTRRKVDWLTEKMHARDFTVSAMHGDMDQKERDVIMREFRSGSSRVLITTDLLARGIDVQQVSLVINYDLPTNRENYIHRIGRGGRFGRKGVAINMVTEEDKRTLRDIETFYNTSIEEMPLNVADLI
target | tested at | added | 4-mer enrichment
EIF4A1 | 90 pmol | 3 µM DMDA-PatA, 2 mM ADP, 2 mM phosphate | 0.611 fold
ATP-dependent RNA helicase DDX3X, helicase core (DDX3X, Homo sapiens, UniProt O00571, residues 132-607) | not given | RocA, ADP, phosphate | 0.752 fold
EIF4A1 | 15 pmol | DMSO vehicle, 2 mM AMP-PNP | 1.62 fold
EIF4A1 | not given | RocA, ADP, phosphate | 0.662 fold

Block 4
Target: Replicase polyprotein 1ab, main protease (rep, Severe acute respiratory syndrome coronavirus 2, UniProt P0DTD1)
Read-out: enzyme activity
Mode: inhibitor
Tested at: 20 µM
Structure (SMILES) | inhibition
O=C(O)C(O)Cc1ccc(O)c(O)c1 (centres unmarked) | -9.07%
CO/N=C(\C(=O)N[C@@H]1C(=O)N2C(C(=O)O)=C(CSC(=O)c3ccco3)CS[C@H]12)c1csc(N)n1 | -4.24%
COC(=O)[C@H](CCSC)NC(=O)c1ccc(NC[C@@H](N)CS)cc1-c1ccccc1 | 83%
CC1(C)CC(Nc2ccc(Nc3ccccc3)cc2)CC(C)(C)N1 | 27.9%
Cc1ccc(C(=O)n2nc(-c3cccnc3)nc2N)cc1 | 49.7%

Block 5
Target: Replicase polyprotein 1ab, polymerase (rep, Severe acute respiratory syndrome coronavirus 2, UniProt P0DTD1)
Read-out: enzyme activity
Mode: inhibitor
Tested at: 20 µM
Compound | inhibition
CCCCCCCCCCCCCC[C@@H](O)[C@@H](O)[C@@H](N)CO | 20.4%
NCCC[C@H](N)CC(=O)N[C@H]1CNC(=O)[C@H]([C@H]2C[C@H](O)NC(N)=N2)NC(=O)/C(=C/NC(N)=O)NC(=O)[C@H](CO)NC(=O)[C@H](CO)NC1=O | -3.29%
O=C(/C=C/c1ccc2ccccc2n1)c1ccncc1 | 1.59%
CN(C)c1ccc(C(=C2C=CC(=[N+](C)C)C=C2)c2ccc(N(C)C)cc2)cc1 | 20.4%
C[C@H](N=C(NC#N)Nc1cccc2ncccc12)c1ccccc1 | -3.61%
Cn1cc(-c2ccc3nnc(C(F)(F)c4ccc5ncccc5c4)n3n2)cn1 | 1.94%
CCc1cccc(N(C)C(N)=Nc2cccc3ccccc23)c1 | 1.27%
Cn1cc(-c2ccc3c(c2)CCN3C(=O)Cc2cccc(C(F)(F)F)c2)c2c(N)ncnc21 | -0.08%
NC(=NCCCCCCN=C(N)/N=C(\N)Nc1ccc(Cl)cc1)/N=C(\N)Nc1ccc(Cl)cc1 | 23%
CCOC(=O)c1ccc(N)cc1 | -1.43%
C=CCN1CC[C@]23c4c5ccc(O)c4O[C@H]2/C(=N/NC(=O)c2ccccc2)CC[C@@]3(O)[C@H]1C5 | 0.15%
COc1cc(F)c(C(C)C)cc1-c1ccc(C(F)(F)F)cc1CN1C(=O)O[C@H](c2cc(C(F)(F)F)cc(C(F)(F)F)c2)[C@@H]1C | 1.29%
CC(C)(C)C(=O)Oc1ccc(S(=O)(=O)Nc2ccccc2C(=O)NCC(=O)O)cc1 | -1.34%
CC(C)N(CCC(C(N)=O)(c1ccccc1)c1ccccn1)C(C)C (centres unmarked) | 94.2%
C=CCOc1ccccc1OCC(O)CNC(C)C (centres unmarked) | 1.2%
CC(=O)CC(c1ccc([N+](=O)[O-])cc1)c1c(O)c2ccccc2oc1=O (centres unmarked) | 1.65%
C[C@@H](c1nc(-c2ccc(C#N)cc2)cs1)[C@](O)(Cn1cncn1)c1cc(F)ccc1F | 5.04%
O=C(O)c1cc(-c2ccc(F)cc2F)ccc1O | 30.1%
CC(=O)c1ccc2c(c1)[C@H](NC(=O)c1ccc(F)c(Cl)c1)[C@H](O)C(C)(C)O2 | 1.19%
CC(C)CCC[C@@H](C)[C@H]1CC[C@H]2[C@@H]3CC=C4C[C@@H](O)CC[C@]4(C)[C@H]3CC[C@]12C | -5.89%
COC(=O)C(N)CS (centres unmarked) | 5.08%
O=C(O)CN1CCN(CC(=O)O)CCN(CC(=O)O)CCN(CC(=O)O)CC1 | -4.79%
Oc1cccc(-c2c3nc(c(-c4cccc(O)c4)c4ccc([nH]4)c(-c4cccc(O)c4)c4nc(c(-c5cccc(O)c5)c5ccc2[nH]5)CC4)C=C3)c1 | 1.83%
CNCCCC1(c2ccccc2)OC(C)(C)c2ccccc21 (centres unmarked) | -3.45%

Other studies, line by line
Technique: protein-binding microarray
Form: hairpin DNA
Matrix: in vitro
Tested at: not given
Setting: whole hairpin DNA, median over replicate spots
Reference: not given
Direction: higher = stronger binding
Strand | target | median fluorescence [a.u.]
GAGGCCGTTTTTTTGGGGCCTCCTGGCCCCAAAAAAACGGCCTCACACTC | Homeobox protein Hox-B13, full length (HOXB13, Homo sapiens, UniProt Q92826, residues 1-284) | 3530
GCAGGCCCACCGTGGGCCTCCTGGCCCACGGTGGGCCTGCACACTCTTTCCCTACACGAC | Transcription factor SOX-2, HMG box (SOX2, Homo sapiens, UniProt P48431, residues 37-118) | 2410
CCACAGGTGGTGGCATGCCTTCCTAGGCATGCCACCACCTGTGGACACTC (5mC at 39) | Cellular tumor antigen p53, full length (TP53, Homo sapiens, UniProt P04637, residues 1-393) | 7230
GAGGCCGACGACGTCGTGCCTCCTGGCACGACGTCGTCGGCCTCACACTC (5mC at 15 29) | Cyclic AMP-dependent transcription factor ATF-1, full length (ATF1, Homo sapiens, UniProt P18846, residues 1-271) | 4160

Excerpt of the above (block 2):
Compound | GFP-positive cells [%]
COS(=O)(=O)[O-].C[N+]1(C)CCC(=C(c2ccccc2)c2ccccc2)CC1 | 65.4
O=C(/C=C/c1cccc(S(=O)(=O)Nc2ccccc2)c1)NO | 49.2
CO[C@H]1C[C@@H]2CC[C@@H](C)[C@@](O)(O2)C(=O)C(=O)N2CCCC[C@H]2C(=O)O[C@H]([C@H](C)C[C@@H]2CC[C@@H](OCCO)[C@H](OC)C2)CC(=O)[C@H](C)/C=C(\C)[C@@H](O)[C@@H](OC)C(=O)[C@H](C)C[C@H](C)/C=C/C=C/C=C/1C | 109
Nc1nc2[nH]cc(CCc3ccc(C(=O)N[C@@H](CCC(=O)[O-])C(=O)[O-])cc3)c2c(=O)[nH]1.Nc1nc2[nH]cc(CCc3ccc(C(=O)N[C@@H](CCC(=O)[O-])C(=O)[O-])cc3)c2c(=O)[nH]1.O.O.O.O.O.[Na+].[Na+].[Na+].[Na+] | 62.3
Cc1cc(C#N)cc(C)c1Oc1nc(Nc2ccc(C#N)cc2)nc(N)c1Br | 31
